Experimental data collected from several papers.
Protocols differ between the studies behind these lines. ± gives the spread as reported.

The tissue uptake of `CC(C)[C@H](NC(=O)[C@@H]1CCCN1C(=O)[C@H](CCCNC(=N)N)NC(=O)[C@H](CS)NC(=O)[C@H](Cc1c[nH]c2ccccc12)NC(=O)[C@H](CCCNC(=N)N)NC(=O)[C@@H](Cc1ccccc1)NC(=O)[C@H](Cc1c[nH]cn1)NC(=O)[C@H](CCC(=O)O)NC(=O)[C@H](CS)NC(=O)[C@H](CS)NC(=O)[C@@H]1CC(=O)N[C@@H](CCCNC(=N)N)C(=O)NCC(=O)N[C@@H](CC(=O)O)C(=O)N[C@H](Cc2ccc(O)cc2)C(=O)N1)C(N)=O` [technetium-99m labelled] is reported as 0.53 ± 0.07 %ID/g (C57 mouse, female, B16/F1 melanoma, skin; intravenous, 0.037 MBq, 4 h).
The tissue uptake of `CCCC[C@H](NC(=O)CN1CCC(NC(=O)CN2CCN(CC(=O)O)CCN(CC(=O)O)CCN(CC(=O)O)CC2)CC1)C(=O)N[C@H]1CC(=O)NCCCC[C@@H](C(N)=O)NC(=O)[C@H](Cc2c[nH]c3ccccc23)NC(=O)[C@H](CCCNC(=N)N)NC(=O)[C@@H](Cc2ccccc2)NC(=O)[C@H](Cc2c[nH]cn2)NC1=O` [gallium-68 labelled] is reported as 0.4 ± 0.2 %ID/g (C57BL/6J mouse, male, B16-F10 tumour, seminal vesicles; 1 h p.i., blocking, with: 100 µg non-radioactive blocking agent).
The tissue uptake of `N=C(N)NCCC[C@@H]1NC(=O)[C@H](CCCCNC(=O)CON=C[C@H](F)[C@@H](O)[C@H](O)[C@H](O)CO)NC(=O)[C@@H](Cc2ccc(O)cc2)NC(=O)[C@H](CC(=O)O)NC(=O)CNC1=O` [fluorine-18 labelled] is reported as 0.2 ± 0.12 %ID/g (microPET imaging, ROI analysis; nude mouse, U-87 MG tumour xenograft, muscle; intravenous, 1 h).
The tissue uptake of `O=C(O)CCC(NP(=O)(O)OCCC[C@@H](NC(=O)CC[C@H](NC(=O)CCCCCNC(=O)c1ccc([18F])cc1)C(=O)O)C(=O)O)C(=O)O` (stereo partly shown) is reported as 0.05 ± 0.005 %ID/g (mouse, CWR22Rv1 xenograft, lung; dose not given, 4 h, blocking agent pre-dosed).
The tissue uptake of `CCCC[C@H](NC(=O)CNC(=O)CNC(=O)CN1CCN(CC(=O)O)CCN(CC(=O)O)CC1)C(=O)N[C@H]1CC(=O)NCCCC[C@@H](C(N)=O)NC(=O)[C@H](Cc2c[nH]c3ccccc23)NC(=O)[C@H](CCCNC(=N)N)NC(=O)[C@@H](Cc2ccccc2)NC(=O)[C@H](Cc2c[nH]cn2)NC1=O` [copper-64 labelled] is reported as 4.92 ± 1.43 %ID/g (female C57 mouse, B16/F1 melanoma, kidneys; intravenous, 0.037 MBq, 2 h).
`COC(=O)c1ccc(-c2cn(Cc3cc(Cl)ccc3O[11CH3])nn2)cc1` gave a tissue uptake of 3.95 %ID/cc (PET/CT; C57BL/6 mouse, liver; 2 min).
`CN(C)c1ccc(-c2nc3ccc(OCCCCCN4CCN5CCN(CC4)CC(=O)[O][Al]([18F])[O]C(=O)C5)cc3s2)cc1` gave a tissue uptake of 14.1 ± 1.82 %ID/g (ICR mouse, kidney; intravenous, 2 min).
The tissue uptake of `CC(C)[C@H](NC(=O)[C@@H]1CCCN1C(=O)[C@H](CCCNC(=N)N)NC(=O)[C@H](CS)NC(=O)[C@H](Cc1c[nH]c2ccccc12)NC(=O)[C@H](CCCNC(=N)N)NC(=O)[C@@H](Cc1ccccc1)NC(=O)[C@H](Cc1c[nH]cn1)NC(=O)[C@H](CCC(=O)O)NC(=O)[C@H](CS)NC(=O)[C@H](CS)NC(=O)COCCOCCNC(=O)[C@@H]1CC(=O)N[C@@H](CCCNC(=N)N)C(=O)NCC(=O)N[C@@H](CC(=O)O)C(=O)N[C@H](Cc2ccc(O)cc2)C(=O)N1)C(N)=O` [technetium-99m labelled] is reported as 0.66 ± 0.19 %ID/g (nude mouse, M21 melanoma xenograft, stomach; intravenous, 2 h).
`CC(C)[C@H](NC(=O)[C@@H]1CCCN1C(=O)[C@H](CCCNC(=N)N)NC(=O)[C@H](CS)NC(=O)[C@H](Cc1c[nH]c2ccccc12)NC(=O)[C@H](CCCNC(=N)N)NC(=O)[C@@H](Cc1ccccc1)NC(=O)[C@H](Cc1c[nH]cn1)NC(=O)[C@H](CCC(=O)O)NC(=O)[C@H](CS)NC(=O)[C@H](CS)NC(=O)CNC(=O)[C@@H]1CC(=O)N[C@@H](CCCNC(=N)N)C(=O)NCC(=O)N[C@@H](CC(=O)O)C(=O)N[C@H](Cc2ccc(O)cc2)C(=O)N1)C(N)=O` [technetium-99m labelled] gave a tissue uptake of 2.75 ± 0.51 %ID/g (C57 mouse, female, B16/F1 melanoma, liver; intravenous, 0.037 MBq, 4 h).
`CC(C)C[C@H](NC(=O)C[C@H](O)[C@H](CC(C)C)NC(=O)[C@H](Cc1c[nH]cn1)NC(=O)CNC(=O)[C@@H](NC(=O)[C@H](C)NC(=O)[C@H](Cc1c[nH]c2ccccc12)NC(=O)[C@H](CCC(N)=O)NC(=O)[C@@H](Cc1ccccc1)NC(=O)CCNC(=O)CCNC(=O)CN1CCN(CC(=O)O)CCN(CC(=O)O)CCN(CC(=O)O)CC1)C(C)C)C(N)=O` [lutetium-177 labelled] has a tissue uptake of 4.5 ± 0.7 %ID/g (mouse PC-3 xenograft, tumour; intraperitoneal, 200 pmol, 24 h, without PA).
For `O=C([O-])CN1CCN(CC(=O)[O-])CCN(CC(=O)NCCc2ccc3c(c2)C2C=CCC2C(c2cc4c(cc2Br)OCO4)N3)CCN(CC(=O)[O-])CC1.[111In+3]` (stereo not shown), the tissue uptake was 0.48 ± 0.1 %ID/g (mouse, Hec50 endometrial tumour, lungs; 4 h post injection).
The tissue uptake of `CCCC[C@H](NC(=O)CNC(=O)CNC(=O)CN1CCN(CC(=O)O)CCN(CC(=O)O)CCN(CC(=O)O)CC1)C(=O)N[C@H]1CC(=O)NCCCC[C@@H](C(N)=O)NC(=O)[C@H](Cc2c[nH]c3ccccc23)NC(=O)[C@H](CCCNC(=N)N)NC(=O)[C@@H](Cc2ccccc2)NC(=O)[C@H](Cc2c[nH]cn2)NC1=O` [copper-64 labelled] is reported as 1.75 ± 0.13 %ID/g (female C57 mouse, B16/F1 melanoma, heart; intravenous, 0.037 MBq, 2 h).
`CCCC[C@H](NC(=O)CNC(=O)CNC(=O)CN1CCN(CC(=O)O)CCN(CC(=O)O)CCN(CC(=O)O)CC1)C(=O)N[C@H]1CC(=O)NCCCC[C@@H](C(N)=O)NC(=O)[C@H](Cc2c[nH]c3ccccc23)NC(=O)[C@H](CCCNC(=N)N)NC(=O)[C@@H](Cc2ccccc2)NC(=O)[C@H](Cc2c[nH]cn2)NC1=O` [gallium-67 labelled] has a tissue uptake of < 1.68 %ID/g (female C57 mouse B16/F1 melanoma, normal organs except kidney; intravenous, 0.037 MBq, 24 h).

For quick reference, copied from above:
The tissue uptake of `CC(C)[C@H](NC(=O)[C@@H]1CCCN1C(=O)[C@H](CCCNC(=N)N)NC(=O)[C@H](CS)NC(=O)[C@H](Cc1c[nH]c2ccccc12)NC(=O)[C@H](CCCNC(=N)N)NC(=O)[C@@H](Cc1ccccc1)NC(=O)[C@H](Cc1c[nH]cn1)NC(=O)[C@H](CCC(=O)O)NC(=O)[C@H](CS)NC(=O)[C@H](CS)NC(=O)[C@@H]1CC(=O)N[C@@H](CCCNC(=N)N)C(=O)NCC(=O)N[C@@H](CC(=O)O)C(=O)N[C@H](Cc2ccc(O)cc2)C(=O)N1)C(N)=O` [technetium-99m labelled] is reported as 0.53 ± 0.07 %ID/g (C57 mouse, female, B16/F1 melanoma, skin; intravenous, 0.037 MBq, 4 h).
